# Published values of several laboratories.
# Compare with care: the assays were run in different laboratories.
# Target: Receptor-interacting serine/threonine-protein kinase 1 (RIPK1, Homo sapiens, UniProt Q13546)
Compound,test,test system,setting,how to read,endpoint,result
CCN1CCN(Cc2ccc(NC(=O)c3ccc(C)c(NC(=O)c4cncc(-c5cccs5)c4)c3)cc2C(F)(F)F)CC1,"binding, competition with immobilised ligand",,1 µM,,remaining binding,37%
CNC1C[S+]2CC[S+]3CC[S+](C1)[Ru-4]321([N]=C=S)[n]2c3ccc(OC)cc3c3c4c(c5cc(F)c[n+]1c5c32)C(=O)NC4=O (stereo not shown),KinomeScan,,0.1 µM,relative to: untreated,remaining binding,96%
Cc1cnc2nc1Nc1cccc(c1)COC/C=C/COCc1cc(ccc1OCCN1CCOCC1)N2,"binding, competition with immobilised ligand",,0.1 µM,,remaining binding,87%
CNC(=O)C[C@H](Cc1ccc(C#N)cc1)NC(=O)c1cc(-c2ccc(CN[C@H](C)c3ccc(C)cc3)o2)ccc1Cl,"enzyme activity, inhibitor",,1 µM,,activity vs control,93%
COc1c(Cl)cccc1Nc1c(-c2ccncc2C#C[C@@]2(C)CCCN2C(=O)/C=C/CN(C)C)[nH]c2c1C(=O)NCC2,"binding, competition with immobilised ligand",,3 µM,,remaining binding,100%
O=C(Cc1ccc(OCc2ccccc2)cc1)NC1(C(=O)O)CCN(C(=O)c2ccc(-c3cccc(Cl)c3)cc2)CC1,"enzyme activity, inhibitor",,10 µM,,activity vs control,125%
Cc1ccc(-c2c(/C=C(\C#N)C(=O)NC(C)C)n(CCCO)c3ncnc(N)c23)cc1,"cell-free assay, competition with immobilised ligand",,1 µM,,remaining binding,100%
CC(C)=CC1OC(C)(C)C2C=C3C(=O)C(Cl)=CC(O)C3C3C(O)C4OC4C(=O)C132 (stereo not shown),"cell-free assay, competition with immobilised ligand",,10 µM,,remaining binding,83%
C=CC(=O)N1CCc2ccc(-n3c(=O)ccc4cnc5ccc(-c6cnn(C)c6)cc5c43)cc21,KINOMEscan,,1 µM,relative to: DMSO control,remaining binding,100%
COc1cc(Nc2nc(C)cc(-c3cnn4nc(OC)ccc34)n2)cc(C(F)(F)F)c1,"binding, competition with immobilised ligand",,1 µM,,remaining binding,93%
CNC(=O)C1CCN(c2cc(C)c(F)cc2NC(=O)c2ccc(-c3cc(O)ccc3C)c(C)c2)CC1,"binding, competition with immobilised ligand",,1 µM,,remaining binding,100%
CCN1CCN(Cc2ccc(C(=O)Nc3ccc(C)c(NCc4cnc5[nH]ccc5c4OC)c3)cc2C(F)(F)F)CC1,"binding, competition with immobilised ligand",,1 µM,,remaining binding,28%
O=C(Nc1ccc(Oc2ncnc3[nH]cc(-c4ccccc4)c23)c(F)c1)c1c2n(n(-c3cc(F)ccc3F)c1=O)CCCC2,"enzyme activity, inhibitor",,0.5 µM,,inhibition,1%
C=CC(=O)Nc1cc(-c2nn(C3CCN(CCNC(=O)[C@H](C)CCC45CC6CC(CC(C6)C4)C5)CC3)c3ncnc(N)c23)ccc1Oc1ccccc1,"inhibitor, KiNativ profiling",biochemical,2 µM,,inhibition,11.7%
COc1cc(Nc2nccc(-c3cnn4nc(OC)ccc34)n2)cc(C(F)(F)F)c1,"binding, competition with immobilised ligand",,1 µM,,remaining binding,96%
C=CC(=O)N1CCCC(n2c(=O)c3ncccc3n(Cc3ccc(Oc4ccccc4)cc3)c2=O)C1 (stereo not shown),"cell-free assay, competition with immobilised ligand",,1 µM,,remaining binding,93%
CN1CC[C@@H](COc2cnc(C#N)cc2-c2ccn3nc(NC(=O)C4CC4)cc3c2)C1,"enzyme activity, inhibitor",,1 µM,,inhibition,-8%
CCn1cc(C(=O)O)c(=O)c2c(N)c(F)c(NC3CCCCC3)cc21,kinase activity,,"0.1 µM, with: ATP at Km",,inhibition,4.7%
Nc1ncc2c(n1)-c1c([nH]c3ccc(C4=CCOCC4)cc13)CCC2,"binding, competition with immobilised ligand",,1 µM,,remaining binding,89%
